# Results of several laboratories.
# Protocols differ between the studies behind these lines. ± marks the error that the study gave.
Substance,assay,system,conditions,how to read,measurement,value
O=C(O)CNC(=O)c1c(O)c2ccccc2n(OCC2CC2)c1=O,,human,single ascending doses,reference: placebo,"haematocrit, haemoglobin, reticulocytes",no effect
CC(C)C[C@@H]1NC(=O)[C@H](CCCNC(=N)N)NC(=O)[C@H](Cc2c[nH]c3ccccc23)NC(=O)[C@H](CCCNC(=N)N)NC(=O)CNC(=O)CNC(=O)[C@H](CCCCN)NC(=O)CNC(=O)[C@H](Cc2c[nH]c3ccccc23)NC(=O)[C@H](CC(=O)O)NC(=O)[C@@H](NC(=O)[C@H](CCC(=O)O)NC(=O)[C@H](C)NC(=O)CCCC[C@@H]2SC[C@@H]3NC(=O)N[C@@H]32)CSSC[C@@H](C(=O)NCC(=O)N2CCC[C@H]2C(=O)O)NC(=O)[C@H](C)NC(=O)[C@H](CCC(=O)O)NC(=O)[C@H]([C@@H](C)O)NC(=O)[C@H](CCCCN)NC(=O)CNC(=O)[C@H](CO)NC(=O)[C@H](C)NC(=O)CNC(=O)[C@@H]2CCCN2C(=O)[C@H](Cc2c[nH]c3ccccc23)NC1=O,"thioflavin S, Congo red","APPswe/PSEN1(A246E) mouse, young, brain cortex","s.c., once monthly, 5 to 12 months, with adjuvant",reference: mock-immunized,amyloid plaque burden,12 ± 3%
CC(C)C[C@H](NC(=O)[C@H](CO)NC(=O)[C@H](CCCNC(=N)N)NC(=O)[C@H](CC(=O)O)NC(=O)[C@H](CCC(=O)O)NC(=O)[C@H](C)NC(=O)[C@@H]1CCCN1C(=O)[C@H](C)NC(=O)[C@H](CCC(=O)O)NC(=O)[C@@H]1CCCN1C(=O)[C@@H]1CCCN1)C(N)=O,,"F344 rat, unilateral 6-OHDA lesion","intranasal, 300 µg daily, 2 weeks after lesion, together with: d-amphetamine 2.5 mg/kg i.p.",reference: vehicle,reduction of rotation,55%
COc1ccc2c(c1)c(CC(=O)O)c(C)n2C(=O)c1ccc(Cl)cc1,"multiplex bead immunoassay, item: IL-4","CD-1 mice, serum","ip, 20 mg/kg, three-injection regimen, together with: LPS 3 mg/kg",,cytokine level,0 pg/mL
cilengitide,,"Sprague-Dawley rats, TNBS colitis, colonic smooth muscle cells","ip, 18 mg/kg/day, 42 d, unit not given",reference: ethanol-treated rats,collagen IαI mRNA level,0.35 ± 0.04
CCO[C@@H](Cc1ccc(OCCn2c(C)ccc2-c2ccc(SC)cc2)cc1)C(=O)O,hepatic PPAR target gene induction,"dyslipidemic Sprague-Dawley rat, liver",together with: ACC inhibitor,,effective dose,≥ 0.3 mg/kg
COCCOCCOCCOCCOc1ccc(C2=N[C@@](C)(C(=O)[O-])CS2)c(O)c1.[Na+],,"bile duct-cannulated rats, non iron-overloaded, bile","oral, 300 µmol/kg",,duration of iron excretion,24 h
Cn1cc(-c2c[nH]c3ncnc(N4CCOCC4)c23)cc1C#N,item: pS935-LRRK2,"rat, non-transgenic, lung","in diet, 3 days",,plasma concentration at full LRRK2 dephosphorylation,> 10 nM
CC1(C)CC(C)(C)c2cc(N/C(S)=N/c3ccc([N+](=O)[O-])cc3)ccc2S1,,mouse,"oral, 60 mg/kg once daily, 4 to 6 h after dosing",,plasma ccK18 level,> 1000 U/L
Polymyxin B,,human whole blood,"125 ng/mL, 4 h, 37 °C, together with: E. coli LPS 0.5 ng/mL",reference: LPS without compound,IL-10 release,38.5 ± 16.2%
Oc1cccc2ccccc12,fish short-term reproduction,"Oryzias latipes, male, liver","258 µg/L, 21 d",,vitellogenin level,81 ± 75 ng/mg liver
CCCCCN(C)CC(=O)[C@H](CC(=O)O)NC(=O)[C@H](CC)n1cc(C(C)(C)C)nc(NCc2nonc2C)c1=O,αII-spectrin cleavage,"rat, CLP sepsis, thymus","iv infusion, 24 h",inhibition,ED50,~0.5 mg/kg/h
CC[C@@H]1[C@H](F)C(=O)N[C@@H]1COc1nccc2cc(C(N)=O)c(OC)cc12,,BALB/c mouse pristane-induced lupus,"in chow, 200 mg/kg, weeks 8 to 20, read at week 20",,anti-dsDNA titre,8160 ± 1280 U/mL
CN(C(=O)c1c(Oc2ccc(F)cc2)nc2ncccn12)c1ccc(Cl)cc1,,"Golden Syrian hamster, male, diet-induced obese, plasma","intraperitoneal, 6 mg/kg, week 5",reference: vehicle,remnant cholesterol reduction,41.6%
COC(=O)[C@@H]1[C@H]2C[C@H]3c4[nH]c5ccccc5c4CCN3C[C@@H]2CC[C@@H]1O,,ethanol-trained rats,"intraperitoneal, 2 mg/kg",reference: vehicle,plasma corticosterone,increased
COc1ccc2c(c1)c(CC(=O)O)c(C)n2C(=O)c1ccc(Cl)cc1,paw oedema,rat,"intraperitoneal, 5 mg/kg",,inhibition in vivo,52.8%
COc1ccc(/C=C\c2cc(OC)c(OC)c(OC)c2)cc1OP(=O)(O)O,,mouse S-180 tumour,"intravenous, 20 mg/kg CA4 equivalent, 2 days after last dose, 7 days daily dosing",,tumour weight,0.91 ± 0.36 g
insulin aspart,,obese type 2 diabetes patients,"subcutaneous, 0.2 U/kg, within 2 min before 692 kcal meal",,plasma glucose AUC(0-1 h),158 mg·h/dL
O=c1cc(-c2ccccc2)oc2cc(O)cc(O)c12,"cell proliferation, CellTiter-Glo","cord blood CD34+ cells, human","24 h, lowest dose with significant inhibition",reference: vehicle,lowest effective concentration,250 to 500 µM
Cc1ccc(NC(=O)c2ccc(CN3CCN(C)CC3)cc2)cc1Nc1nccc(-c2cncc(-c3oncc3C)c2)n1,,mild-to-moderate Parkinson's disease patients,"oral, 100 mg once daily, day 7, practically defined OFF state",direction not given,MDS-UPDRS part II score,8.2 ± 4.9
Cc1cc2nc(-c3ccc(OCc4ccccc4)cc3)[nH]c2cc1C,"ABTS scavenging, absorbance",,,,IC50,1660 nM
CC1(C)CCC(c2ccc(Cl)cc2)=C(CN2CCN(c3ccc(C(=O)NS(=O)(=O)c4ccc(N[C@H](CCN5CCOCC5)CSc5ccccc5)c(S(=O)(=O)C(F)(F)F)c4)cc3)CC2)C1,"cell kill, PI exclusion flow cytometry","normal CD3+ T lymphocytes, dog, peripheral blood",24 h,,EC50,220 ± 190 nM
N#CC[C@H](C1CCCC1)n1cc(-c2ncnc3[nH]ccc23)cn1,,Ryr2 R176Q/WT CPVT mouse,"intraperitoneal, 75 mg/kg, 10 min before test, induced ventricular arrhythmia",,arrhythmia duration,decreased
CC[C@@H](C(=O)Nc1ccc(C(N)=O)c(F)c1)n1cc(OC)c(-c2cc(Cl)ccc2-n2cc(C(F)(F)F)nn2)cc1=O,,"New Zealand White rabbit, FeCl2 carotid injury","intravenous bolus, 20 mg/kg",,thrombus weight,2.2 mg
CC1(C)C2CCC1(C)C(OC(=O)C(O)Cc1ccc(O)c(O)c1)C2 (stereo not drawn),,"C57BL/6 mouse, transient cerebral ischaemia/reperfusion, brain","intravenous, 12 mg/kg, dosed immediately after reperfusion",reference: untreated ischaemic mice,SOD level,increased
C[C@H]1C[C@H]2CSC(N)=N[C@@]2(c2nc(NC(=O)c3ccc(OC(F)F)cn3)cs2)CO1,item: CSF sAPPα,healthy adults,"275 mg once daily, 14 days, day 15",reference: placebo-adjusted baseline,change from baseline,98%
neuropeptide Y,,"Sprague Dawley rat, urethane-anaesthetised","intravenous, 5 nmol",,pressor response onset time,32 ± 8 s
CCCCCCCCCCCCCCCC(=O)NCCCC[C@H](NC(=O)[C@H](CCC(=O)O)NC(=O)[C@H](CCC(=O)O)NC(=O)[C@H](Cc1ccc(O)cc1)NC(=O)[C@H](CCC(=O)O)NC(=O)CCCCCNC(=S)Nc1ccc2c(c1)C(=O)OC21c2ccc(O)cc2Oc2cc(O)ccc21)C(=O)N[C@@H](Cc1ccc(O)cc1)C(=O)N[C@@H](CCC(=O)O)C(=O)NCC(=O)NCC(=O)NCC(=O)NCC(=O)N[C@@H](CO)C(=O)NCC(=O)NCC(=O)NCC(=O)NCC(=O)N[C@@H](CO)C(=O)N[C@@H](Cc1ccccc1)C(=O)N[C@@H](CC(N)=O)C(=O)N1CCC[C@H]1C(=O)N[C@@H](CCCNC(=N)N)C(=O)N[C@@H](Cc1c[nH]cn1)C(=O)NC(C)(C)C(=O)N[C@@H](CCC(=O)O)C(=O)NCC(=O)N[C@H](C(=O)N[C@@H](Cc1ccccc1)C(=O)N[C@H](C(=O)N[C@@H](CO)C(=O)N[C@@H](CC(=O)O)C(=O)N[C@H](C(=O)N[C@@H](CO)C(=O)N[C@@H](CO)C(=O)N[C@@H](Cc1ccc(O)cc1)C(=O)N[C@@H](CC(C)C)C(=O)N[C@@H](CCC(=O)O)C(=O)NCC(=O)N[C@@H](CCC(N)=O)C(=O)N[C@@H](C)C(=O)N[C@@H](C)C(=O)N[C@@H](CCCCN)C(=O)N[C@@H](CCC(=O)O)C(=O)N[C@@H](Cc1ccccc1)C(=O)N[C@H](C(=O)N[C@@H](C)C(=O)N[C@@H](Cc1c[nH]c2ccccc12)C(=O)N[C@@H](CC(C)C)C(=O)N[C@H](C(=O)N[C@@H](CCCCN)C(=O)NCC(=O)N[C@@H](CCCNC(=N)N)C(=O)NCC(=O)O)C(C)C)[C@@H](C)CC)C(C)C)[C@@H](C)O)[C@@H](C)O,,db/db mouse,"subcutaneous, 90 nmol/kg twice weekly, 8 weeks",,serum ALT,45 ± 3.5 IU/L
CC1CNc2c(cccc2S(=O)(=O)N[C@@H](CCCNC(=N)N)C(=O)N2CC[C@@H](C)C[C@@H]2C(=O)O)C1 (stereo partly drawn),"platelet activation, inhibitor, flow cytometry, item: CD62P",human whole blood,together with: tissue factor,,EC50,22 nM
CS(=O)(=O)c1ccc(-c2nc3ccccn3c2Nc2ccccc2)cc1,formalin test,male Wistar rat,"intraperitoneal, 40 mg/kg",reference: control group,pain score AUC,decreased

# Excerpt of the above:
Substance,assay,system,conditions,how to read,measurement,value
O=c1cc(-c2ccccc2)oc2cc(O)cc(O)c12,"cell proliferation, CellTiter-Glo","cord blood CD34+ cells, human","24 h, lowest dose with significant inhibition",reference: vehicle,lowest effective concentration,250 to 500 µM
COc1ccc2c(c1)c(CC(=O)O)c(C)n2C(=O)c1ccc(Cl)cc1,paw oedema,rat,"intraperitoneal, 5 mg/kg",,inhibition in vivo,52.8%
insulin aspart,,obese type 2 diabetes patients,"subcutaneous, 0.2 U/kg, within 2 min before 692 kcal meal",,plasma glucose AUC(0-1 h),158 mg·h/dL
cilengitide,,"Sprague-Dawley rats, TNBS colitis, colonic smooth muscle cells","ip, 18 mg/kg/day, 42 d, unit not given",reference: ethanol-treated rats,collagen IαI mRNA level,0.35 ± 0.04
